# Assay results of several laboratories.
# Each line is one published result; not all experiments were run side by side. Numbers after ± are the reported error.
# gag-pol integrase: Gag-Pol polyprotein, integrase (gag-pol, Human immunodeficiency virus 1, UniProt P12497)
# BCHE: Cholinesterase (BCHE, Homo sapiens, UniProt P06276)
# UniProt P06276, sequence (whole entry, looked up): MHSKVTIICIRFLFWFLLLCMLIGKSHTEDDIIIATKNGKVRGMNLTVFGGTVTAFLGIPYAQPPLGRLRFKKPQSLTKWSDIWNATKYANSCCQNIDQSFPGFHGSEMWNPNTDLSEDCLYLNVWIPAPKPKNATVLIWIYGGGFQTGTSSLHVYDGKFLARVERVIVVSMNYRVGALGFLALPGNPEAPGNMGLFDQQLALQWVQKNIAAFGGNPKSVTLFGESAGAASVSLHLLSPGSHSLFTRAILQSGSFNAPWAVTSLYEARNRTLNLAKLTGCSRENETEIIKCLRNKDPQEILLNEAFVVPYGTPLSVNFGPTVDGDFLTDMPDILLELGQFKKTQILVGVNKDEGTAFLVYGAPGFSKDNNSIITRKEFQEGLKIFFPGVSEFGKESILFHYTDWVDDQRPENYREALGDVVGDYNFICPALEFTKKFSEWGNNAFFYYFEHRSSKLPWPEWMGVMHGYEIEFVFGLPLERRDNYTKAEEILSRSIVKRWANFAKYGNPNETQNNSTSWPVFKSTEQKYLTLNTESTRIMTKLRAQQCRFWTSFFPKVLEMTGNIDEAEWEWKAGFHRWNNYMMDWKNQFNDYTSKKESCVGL
# UniProt P06213, sequence (whole entry, looked up): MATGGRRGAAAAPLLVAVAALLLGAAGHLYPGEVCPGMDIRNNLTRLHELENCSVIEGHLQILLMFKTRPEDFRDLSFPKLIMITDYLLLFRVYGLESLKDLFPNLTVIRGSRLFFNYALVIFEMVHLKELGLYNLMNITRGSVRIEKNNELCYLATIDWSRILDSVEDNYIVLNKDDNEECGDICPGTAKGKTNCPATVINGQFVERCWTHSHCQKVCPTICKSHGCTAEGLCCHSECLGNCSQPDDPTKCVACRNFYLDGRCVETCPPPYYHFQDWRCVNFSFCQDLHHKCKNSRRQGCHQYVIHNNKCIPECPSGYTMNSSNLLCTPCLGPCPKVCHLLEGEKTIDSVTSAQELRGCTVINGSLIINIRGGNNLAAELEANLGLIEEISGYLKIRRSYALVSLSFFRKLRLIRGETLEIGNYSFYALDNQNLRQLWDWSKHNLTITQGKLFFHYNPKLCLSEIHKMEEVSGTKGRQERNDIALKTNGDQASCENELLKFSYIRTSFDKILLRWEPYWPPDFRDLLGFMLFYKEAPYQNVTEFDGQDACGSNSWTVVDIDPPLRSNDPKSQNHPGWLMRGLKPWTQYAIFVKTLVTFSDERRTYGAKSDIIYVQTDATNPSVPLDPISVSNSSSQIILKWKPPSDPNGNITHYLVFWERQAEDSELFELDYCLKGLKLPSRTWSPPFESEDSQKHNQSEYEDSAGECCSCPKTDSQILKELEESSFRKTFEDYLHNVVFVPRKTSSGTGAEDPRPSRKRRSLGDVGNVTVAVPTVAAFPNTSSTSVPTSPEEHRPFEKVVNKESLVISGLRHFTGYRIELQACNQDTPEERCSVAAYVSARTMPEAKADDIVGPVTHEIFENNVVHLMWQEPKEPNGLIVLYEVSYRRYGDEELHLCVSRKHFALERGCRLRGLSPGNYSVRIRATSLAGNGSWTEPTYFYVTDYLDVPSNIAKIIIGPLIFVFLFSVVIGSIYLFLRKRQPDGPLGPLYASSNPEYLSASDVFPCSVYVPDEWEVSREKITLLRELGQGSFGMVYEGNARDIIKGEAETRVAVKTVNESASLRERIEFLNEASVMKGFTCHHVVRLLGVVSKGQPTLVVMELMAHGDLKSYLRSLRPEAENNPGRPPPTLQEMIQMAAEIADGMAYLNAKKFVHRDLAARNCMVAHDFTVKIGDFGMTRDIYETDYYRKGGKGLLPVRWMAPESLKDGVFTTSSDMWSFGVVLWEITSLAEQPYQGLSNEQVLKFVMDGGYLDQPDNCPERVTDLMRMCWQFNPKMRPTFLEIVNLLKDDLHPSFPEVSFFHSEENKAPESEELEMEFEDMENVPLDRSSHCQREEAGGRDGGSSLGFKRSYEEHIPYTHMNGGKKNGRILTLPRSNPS
Compound,target or system,assay,test system,setting,how to read,endpoint,result
COc1ccccc1N1CCN(CCN(C(=O)C2CCCCC2)c2ccccn2)CC1,Plasmodium falciparum,,HB3,,,IC50,10 µM
Cc1noc(-c2cccs2)c1C(=O)NC(C)c1cccc2ccccc12 (stereo not drawn),Plasmodium falciparum,parasite growth,Dd2,,,EC50,0.042 ± 0.0021 µM
CC(C)[C@H]1NC(=O)[C@H](Cc2ccccc2)NC(=O)CNC(=O)[C@@H](Cc2c[nH]c3ccccc23)NC(=O)[C@H](CCCCN)NC(=O)[C@@H](CCCN)NC1=O,Acanthamoeba castellanii,,,trophozoites,,IC50,12.1 µg/mL
COc1ccccc1N1CCN(Cc2c(NC(C)=O)sc(C)c2C)CC1,Plasmodium falciparum,"parasite growth, SYBR Green",3D7 wild type,72 h,,EC50,0.224 ± 0.086 µM
C=CC/N=c1/scc(-c2ccccc2Br)n1/N=C/c1ccccn1,gag-pol integrase,"strand transfer activity, inhibitor",,wild-type integrase,,IC50,> 100 µM
CC(C)[C@@H]1NC(=O)[C@@H](CCCNC(=N)N)NC(=O)[C@H]([C@@H](C)O)NC(=O)[C@@H](CCCNC(=N)N)NC(=O)[C@H](Cc2ccccc2)NC(=O)[C@@H](Cc2ccccc2)NC1=O,Naegleria fowleri,,,trophozoites,,IC90,> 16 µg/mL
Cc1c2c(nn1C)CSCc1cc(n(C)n1)CSc1cc(c3ccccc3c1)OCCCc1c(C(=O)O)n(C)c3c-2c(Cl)ccc13,Staphylococcus aureus,"label-free quantitative proteomics, refers to: SAOUHSC_01399 protein",SA113,concentration not given,baseline: untreated control,log2 fold change,3.25
CC(C)[C@H]1NC(=O)[C@H](Cc2ccccc2)NC(=O)CNC(=O)[C@@H](Cc2ccccc2)NC(=O)[C@H](CCCCN)NC(=O)[C@@H](CCCNC(=N)N)NC1=O,Acanthamoeba castellanii,,,trophozoites,,IC50,> 16 µg/mL
Cc1cc(Nc2ccc(C)c(Cl)c2)n2nc(C(F)(F)F)nc2n1,Plasmodium falciparum,"parasite growth, SYBR Green",,72 h,baseline: 3D7-E182D over 3D7,EC50 ratio,16
CC(C)[C@@H]1NC(=O)[C@@H](CCCN)NC(=O)[C@H]([C@@H](C)O)NC(=O)[C@@H](CCCN)NC(=O)[C@H](Cc2ccccc2)NC(=O)[C@@H](C)NC(=O)[C@@H](C(C)C)NC(=O)[C@@H](C)NC(=O)[C@H](Cc2c[nH]c3ccccc23)NC(=O)[C@@H](Cc2c[nH]c3ccccc23)NC1=O,Acanthamoeba castellanii,,,trophozoites,,IC50,> 16 µg/mL
Cc1ccccc1NC(=O)Nc1ccc(CC(=O)N[C@@H](CCCCNC(=O)/C=C/c2cccnc2)C(=O)N[C@@H](CCCC(=O)O)C(=O)NC2(C(=O)NCCOCCOCCOCCOCC(=O)N[C@@H](CCCCNC(=S)Nc3ccc(CCCN(CCN4CCN(CP(=O)(O)O)CCN(CP(=O)(O)O)CC4)CC(=O)O)cc3)C(N)=O)CCCCC2)cc1 [gallium-68 labelled],,shake flask,octanol/PBS,pH 7.4,,log D,-1.86 ± 0.02
CC[C@H](C)[C@H](NC(=O)[C@H](C)NC(=O)[C@H](CCCCN)NC(=O)[C@H](CC(C)C)NC(=O)[C@H](C)NC(=O)[C@@H](NC(=O)[C@H](Cc1c[nH]cn1)NC(=O)[C@H](CC(C)C)NC(=O)[C@@H](NC(=O)[C@@H](NC(=O)[C@H](CCCCN)NC(=O)[C@H](C)NC(=O)[C@H](C)NC(=O)[C@H](CO)NC(=O)[C@H](CCCCN)NC(=O)[C@H](Cc1ccccc1)NC(=O)[C@@H](NC(=O)[C@H](CCCCN)NC(=O)[C@H](CC(C)C)NC(=O)[C@H](Cc1ccccc1)NC(=O)[C@H](CO)NC(=O)[C@H](CCCCN)NC(=O)[C@H](Cc1c[nH]c2ccccc12)NC(=O)[C@H](CCCCN)NC(C)=O)[C@@H](C)O)[C@@H](C)O)C(C)C)[C@@H](C)O)C(=O)N[C@@H](CO)C(=O)N[C@@H](CO)C(N)=O,Streptococcus pyogenes,,ATCC 19615,1 strain,,MBC50,16 µg/mL
Cc1sc(CNCCCNc2cc(=O)c3ccccc3[nH]2)c(I)c1C,Plasmodium falciparum,parasite growth,Dd2,,,EC50,0.604 ± 0.03 µM
C#Cc1ccc(C=NNC(=O)c2ccc(COC)cc2)c(O)c1,Cryptococcus neoformans,,H99,"unit not given, with: fluconazole",lower = more synergy,FICI,1
CN(C)c1nc(NCc2cccc(F)c2)c(/N=N/c2ccc(Cl)cc2)c(N(C)C)n1,Ostrinia furnacalis,leaf dipping,,"200 mg/L, 96 h",,mortality,90%
Cc1cc(Cl)cc(S(C)(=O)=O)c1NC(=O)c1cc(Br)nn1-c1ncccc1Cl,Spodoptera litura,leaf-dip,third instar larvae,"6.25 ppm, 96 h",,mortality,100%
C[N+](C)(C)CCCCCCCCCC[N+](C)(C)C,BCHE,"enzyme activity, fluorescence",,,,IC50,17.3 ± 1.99 µM
OCCN1CCN(CC/C=C2/c3ccccc3Sc3ccc(C(F)(F)F)cc32)CC1,Plasmodium falciparum,,HB3,,,IC50,3.98 µM
CC(C)C[C@H](NC(=O)C[C@H](O)[C@H](CC(C)C)NC(=O)[C@H](Cc1c[nH]cn1)NC(=O)CNC(=O)[C@@H](NC(=O)[C@H](C)NC(=O)[C@H](Cc1c[nH]c2ccccc12)NC(=O)[C@H](CCC(N)=O)NC(=O)[C@@H](Cc1ccccc1)NC(=O)CCNC(=O)CCSc1nnc(NCCC(=O)NCCC(=O)NCCCC[C@H](NC(=O)N[C@@H](CCC(=O)O)C(=O)O)C(=O)O)c2c1CCC1C(CC2)C1COC(=O)NCCNC(=O)CC[C@H](C(=O)O)N1CCN(CC(=O)O)CCN(CC(=O)O)CC1)C(C)C)C(N)=O (stereo partly drawn) [gallium-68 labelled],,,"athymic NMRI nude mouse, kidneys","intravenous, dose not given, 2 h, with: bombesin 480 nmol (GRPR blocking)",,tissue uptake,21.3 %ID/g
CCCCN1[C@@H]2CC[C@H]1C[C@@H](OC(c1ccc(F)cc1)c1ccc(F)cc1)C2,Plasmodium falciparum,,D10,,,IC50,3.16 µM
O=C(O)C[C@H](NC(=O)[C@H](CC(=O)O)NC(=O)[C@H](CC(=O)O)NC(=O)[C@H](CC(=O)O)NC(=O)[C@H](CC(=O)O)NC(=O)[C@H](CC(=O)O)NC(=O)[C@H](CC(=O)O)NC(=O)[C@H](CC(=O)O)NC(=O)[C@H](CC(=O)O)NC(=O)[C@H](CC(=O)O)NC(=O)[C@H](CC(=O)O)NC(=O)[C@H](CCCCNC(=O)c1ccc(C(=O)NCCOCCOB2BBBBBB3BBBB3B2)cc1)NC(=O)CN1CCN(CC(=O)O)CCN(CC(=O)O)CCN(CC(=O)O)CC1)C(=O)O [gallium-67 labelled],,,"ddY mice, male, stomach","intravenous, 37 kBq, 10 min",,tissue uptake,0.34 %ID
O=C(CCCN1CC=C(n2c(=O)[nH]c3ccccc32)CC1)c1ccc(F)cc1,Plasmodium falciparum,,W2,,,IC50,3.16 µM
Cn1cccc1/C=N/N1CCN(Cc2ccccc2)CC1,gag-pol integrase,"3'-processing activity, inhibitor",,wild-type integrase,,IC50,> 100 µM
Fc1ccc(C(OCCCc2c[nH]cn2)c2ccc(F)cc2)cc1,Plasmodium falciparum,,HB3,,,IC50,2 µM
O=C(NCCCCN1CCN(c2cccc(Cl)c2Cl)CC1)c1cc2ccccc2s1,BCHE,inhibitor,,,,IC50,10.9 ± 3.59 µM
CCNC(=O)c1ccc(-n2nc(C)cc2-c2ccccc2)cc1,Plasmodium falciparum,"parasite growth, SYBR Green",3D7 DHODH E182D,72 h,,EC50,5.85 ± 0.88 µM
C[C@@H](O)[C@@H]1NC(=O)[C@H](Cc2ccccc2)NC(=O)[C@@H](Cc2ccccc2)NC(=O)[C@H](Cc2ccccc2)NC(=O)[C@@H](CCCN)NC(=O)[C@H](CCCCN)NC(=O)[C@@H](CCCCN)NC1=O,Naegleria fowleri,,,trophozoites,,IC90,> 16 µg/mL
CCCN(CCC)[C@H]1CCc2c(F)ccc(O)c2C1,Plasmodium falciparum,,Dd2,,,IC50,1.58 µM
C[C@H]1NC(=O)[C@H](Cc2c[nH]c3ccccc23)NC(=O)[C@@H](Cc2ccccc2)NC(=O)[C@@H](CCCN)NC(=O)[C@H]([C@@H](C)O)NC(=O)[C@@H](CCCN)NC(=O)[C@H](Cc2c[nH]c3ccccc23)NC(=O)[C@@H](C)NC1=O,Acanthamoeba castellanii,,,trophozoites,,IC50,11.6 µg/mL
COc1ccc(N2C(=O)N(c3c(C)cccc3Cl)Cc3cnc(Nc4ccc(C5CCN(C)CC5)cc4OC)nc32)nc1,"Insulin receptor (INSR, Homo sapiens, UniProt P06213)",kinase activity,,0.5 µM,,inhibition,18%

# For quick reference, copied from above:
Compound,target or system,assay,test system,setting,how to read,endpoint,result
Cc1cc(Cl)cc(S(C)(=O)=O)c1NC(=O)c1cc(Br)nn1-c1ncccc1Cl,Spodoptera litura,leaf-dip,third instar larvae,"6.25 ppm, 96 h",,mortality,100%
COc1ccc(N2C(=O)N(c3c(C)cccc3Cl)Cc3cnc(Nc4ccc(C5CCN(C)CC5)cc4OC)nc32)nc1,"Insulin receptor (INSR, Homo sapiens, UniProt P06213)",kinase activity,,0.5 µM,,inhibition,18%
